Published values collected from several papers.
Parts stem from different laboratories: compare values within a part only. Changes are numbered by the printed parent chain.

Set 1 — method: protein binding microarray; molecule type: double-stranded DNA, one strand shown; matrix: in vitro; tested at: not given; reference: not given; direction: higher = stronger binding; endpoint: E-score
Target: Histone acetyltransferase KAT6A, winged helix 2, GST fusion (KAT6A, Homo sapiens, UniProt Q92794, residues 85-181)
Notes: 8-mer, flanks averaged, mean of 2 arrays, mostly near background
Construct (chain): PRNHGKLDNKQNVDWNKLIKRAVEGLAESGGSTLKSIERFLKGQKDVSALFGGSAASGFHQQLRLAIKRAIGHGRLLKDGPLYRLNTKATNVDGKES
Strand = ATTCCAAA; result = -0.0215
Strand = CGTGGGAG; result = 0.171
Strand = CCTTCACA; result = 0.00877
Strand = CCAGTCAC; result = -0.0451
Strand = GCAATCCA; result = 0.0399
Strand = GGTTTGTA; result = -0.0275
Strand = CTGCACTA; result = 0.142
Strand = ATAGCTCG; result = -0.0311

Set 2 — target: inorganic phosphate, free oxyanion; method: microfluidic competitive inhibition; matrix: in vitro, cell-free expressed; tested at: not given; direction: lower = stronger binding; endpoint: phosphate dissociation constant
Notes: derived from inhibition constants, unchanged parent 615000 nM
Parent: PafA, mature enzyme, eGFP fusion (Elizabethkingia meningoseptica, UniProt Q9KJX5); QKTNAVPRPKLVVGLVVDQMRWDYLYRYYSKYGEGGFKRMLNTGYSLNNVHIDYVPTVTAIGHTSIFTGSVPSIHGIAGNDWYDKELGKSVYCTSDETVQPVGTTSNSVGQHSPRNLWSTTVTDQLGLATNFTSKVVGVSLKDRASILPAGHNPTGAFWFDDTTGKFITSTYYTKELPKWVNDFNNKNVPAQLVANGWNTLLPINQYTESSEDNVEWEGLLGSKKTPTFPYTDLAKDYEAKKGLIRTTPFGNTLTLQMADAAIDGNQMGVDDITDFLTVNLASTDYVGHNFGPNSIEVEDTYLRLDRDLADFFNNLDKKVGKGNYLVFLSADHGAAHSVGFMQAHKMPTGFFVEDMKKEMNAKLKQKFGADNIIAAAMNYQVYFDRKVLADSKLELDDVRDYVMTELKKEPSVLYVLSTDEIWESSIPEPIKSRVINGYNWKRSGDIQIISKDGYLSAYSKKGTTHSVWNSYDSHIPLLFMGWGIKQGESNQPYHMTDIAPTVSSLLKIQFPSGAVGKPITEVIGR
Substitution = L507V; result = 599 µM
Substitution = S451G; result = 501 µM
Substitution = K442G; result = 643 µM
Substitution = L117V; result = 697 µM
Substitution = S223G; result = 529 µM
Substitution = H112G; result = 659 µM
Substitution = D183V; result = 673 µM
Substitution = K357V; result = 569 µM
Substitution = Y207G; result = 304 µM
Substitution = Y238G; result = 499 µM
Substitution = G350A; result = 567 µM
Substitution = G156V; result = 500 µM
Substitution = D272V; result = 650 µM
Substitution = Y302G; result = 832 µM
Substitution = L329G; result = 755 µM
Substitution = L47G; result = 470 µM
Substitution = P114V; result = 554 µM
Substitution = N131G; result = 370 µM
Substitution = I77V; result = 574 µM
Substitution = L303V; result = 659 µM
Substitution = N372G; result = 666 µM
Substitution = N361G; result = 636 µM
Substitution = P348V; result = 576 µM
Substitution = R21G; result = 550 µM
Substitution = T163V; result = 562 µM

Set 3 — effect on: binding; method: phage display NGS; molecule type: peptide; tested at: concentration not given; reference: input library; endpoint: enrichment fold change
Target: UDP-N-acetylglucosamine--peptide N-acetylglucosaminyltransferase 110 kDa subunit (OGT, Homo sapiens, UniProt O15294)
Chain of UniProt O15294 (whole entry, looked up): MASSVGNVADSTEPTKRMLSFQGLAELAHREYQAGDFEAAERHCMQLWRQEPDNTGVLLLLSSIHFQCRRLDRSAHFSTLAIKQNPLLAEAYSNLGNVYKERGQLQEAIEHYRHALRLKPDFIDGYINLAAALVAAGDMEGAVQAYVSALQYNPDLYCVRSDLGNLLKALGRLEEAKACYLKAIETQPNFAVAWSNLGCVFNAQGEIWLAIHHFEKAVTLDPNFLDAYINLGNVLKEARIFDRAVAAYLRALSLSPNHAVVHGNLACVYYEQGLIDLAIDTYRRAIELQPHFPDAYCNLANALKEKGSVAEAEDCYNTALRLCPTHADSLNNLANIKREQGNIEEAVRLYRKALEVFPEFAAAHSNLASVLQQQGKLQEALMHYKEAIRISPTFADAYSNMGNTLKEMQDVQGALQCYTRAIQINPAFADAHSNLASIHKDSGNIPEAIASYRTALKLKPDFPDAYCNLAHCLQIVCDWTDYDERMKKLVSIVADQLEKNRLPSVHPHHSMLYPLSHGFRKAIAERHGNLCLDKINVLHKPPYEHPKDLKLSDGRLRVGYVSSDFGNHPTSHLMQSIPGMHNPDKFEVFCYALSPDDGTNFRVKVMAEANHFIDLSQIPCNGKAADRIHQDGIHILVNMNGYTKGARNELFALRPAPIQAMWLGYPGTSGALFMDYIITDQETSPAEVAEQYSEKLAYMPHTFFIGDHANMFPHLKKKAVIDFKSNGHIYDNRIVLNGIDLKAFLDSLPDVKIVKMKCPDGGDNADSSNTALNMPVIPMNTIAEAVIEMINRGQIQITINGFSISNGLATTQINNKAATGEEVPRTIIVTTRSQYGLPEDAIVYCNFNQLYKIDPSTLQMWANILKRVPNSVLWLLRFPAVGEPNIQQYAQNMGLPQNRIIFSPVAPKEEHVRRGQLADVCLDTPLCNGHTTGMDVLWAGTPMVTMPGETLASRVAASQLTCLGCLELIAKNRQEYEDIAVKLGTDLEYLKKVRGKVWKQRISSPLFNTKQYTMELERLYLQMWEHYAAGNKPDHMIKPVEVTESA
Sequence = STFGRYLPSYIIQYR; result = 33.5
Sequence = NTTHQVHRFKWHQHT; result = 4.07
Sequence = FIPYSPFYQIESSRY; result = 1.95
Sequence = SIIPLAHVHNDHHAH; result = 7.64
Sequence = WVNVPHYQVFLHEHH; result = 6.09
Sequence = AWAQWQHRTYTSHMD; result = 2.8
Sequence = ASPSYVPHYQMVYKI; result = 2.82
Sequence = TAPFYPPAYDI; result = 0.481
Sequence = WTSQWQTRHPHHHTS; result = 8.32
Sequence = DHARHPHEGTGTSHH; result = 6.64
Sequence = YTIDVVFEPKYQIMT; result = 8.08
Sequence = HWQRHHMDAPFQMPY; result = 5.04
Sequence = QLAAYSPVYQIPILY; result = 6.74
Sequence = GKRDHTFHMHSSVH; result = 5.02
Sequence = RNLHWDHHGPEHQHF; result = 7.97
Sequence = NNNIYWPKYQITNTL; result = 7.21
Sequence = KYTPLYQIHAMPQAV; result = 2.59
Sequence = HNFHYYHAQPEWSPM; result = 3.82
Sequence = HLGHPHFYNHVYHYA; result = 3.48
Sequence = SNKQDLMPAYQIQYG; result = 9.84
Sequence = QVMNEHRHHMRHQIY; result = 2.85
Sequence = HNHRHHITSAAIAQA; result = 4.06
Sequence = YSLHIAQHHDAYTIH; result = 6.91
Sequence = TYRHSDHPVSSFAHV; result = 4.41
Sequence = HTQTHWIPHEIRHV; result = 9.75

Single results of other studies
SMILES = C[N+]1(C)CCCC(OC(=O)C(O)(c2ccccc2)c2ccccc2)C1 (centres unmarked); cell line = mouse MPNST tumor cells; assay = high-content immunofluorescence imaging, item: nuclear SOX9; conditions = 10 µM, 12 h, mean of 2 replicates; how to read = reference: DMSO control, higher = more nuclear SOX9; endpoint = nuclear SOX9 intensity; result = 89.5 % of DMSO

Some of these lines once more (set 2):
Substitution = P114V; result = 554 µM
Substitution = G156V; result = 500 µM
Substitution = S451G; result = 501 µM
Substitution = L507V; result = 599 µM
Substitution = L303V; result = 659 µM
Substitution = D183V; result = 673 µM
Substitution = Y302G; result = 832 µM
Substitution = K357V; result = 569 µM
Substitution = D272V; result = 650 µM
